Published values of several laboratories.
Each line is one published result; not all experiments were run side by side. ± marks the error that the study gave.

Structure (SMILES) = [Cl-].[Cl-].[Pt+2].[Ru+2].c1ccc(-c2nc3ccccc3nc2-c2ccccn2)nc1.c1cnc2c(c1)ccc1cccnc12.c1cnc2c(c1)ccc1cccnc12; target or system = Danio rerio; system = embryos; conditions = 15 µM, 96 h; endpoint = survival rate; result = 86.7 ± 1.9%
Structure (SMILES) = C[C@H]1CN(c2n[nH]c3nc(N[C@H]4CC[C@H](NS(=O)(=O)CCC(F)(F)F)CC4)ncc23)CCO1; target or system = Tyrosine-protein kinase SYK (SYK, Homo sapiens, UniProt P43405); assay = inhibitor, Kinobeads competition profiling; conditions = 0.032 µM; scale = reference: vehicle; endpoint = relative abundance; result = 1.06
Structure (SMILES) = O=[N+]([O-])c1ccc(N2CCN(CCC(O)c3ccc(F)cc3)CC2)c(C(F)(F)F)c1 (stereo not shown); target or system = Salmonella typhimurium; assay = genotoxicity, SOS/umu test; system = TA1535/pSK1002; conditions = 0.008 mg/mL, 4 h, with S9, lower range; endpoint = induction factor; result = 0.7
Structure (SMILES) = [Cl-].[Cl-].[Pt+2].[Ru+2].c1ccc(-c2nc3cc4ccccc4cc3nc2-c2ccccn2)nc1.c1cnc2c(c1)ccc1cccnc12.c1cnc2c(c1)ccc1cccnc12; target or system = Danio rerio; system = embryos; conditions = 45 µM, 48 h; endpoint = hatching rate; result = 30 ± 2.1%
Structure (SMILES) = CC(=O)N1CCC(C(=O)N2CCN3C(=O)c4cc(-c5ccccc5)ccc4NC(=O)C3C2)CC1 (stereo not shown); target or system = Salmonella typhimurium; system = TA100; conditions = 50 µg/plate, without S9; endpoint = revertants per plate; result = 94
Structure (SMILES) = OC(CCN1CC=C(c2ccc(F)cc2)CC1)c1ccc(F)c2ccccc12 (stereo not shown); target or system = Salmonella typhimurium; assay = genotoxicity, SOS/umu test; system = TA1535/pSK1002; conditions = 0.004 mg/mL, 4 h, without S9, lower range; endpoint = induction factor; result = 0.7
Structure (SMILES) = COc1ccc(C[C@H](NC(=O)[C@H](C)NC(=O)CN2CCOCC2)C(=O)N[C@@H](Cc2ccccc2)C(=O)C2(C)CO2)cc1 (stereo in doubt); target or system = Plasmodium falciparum; system = 3D7, artemisinin-sensitive; scale = reference: HEK-293T CC50 over IC50; endpoint = selectivity ratio; result = > 4560
Structure (SMILES) = COc1cc2c(Oc3ccc4[nH]c(C)cc4c3F)ccnc2cc1OCC1(N)CC1; system = paediatric recurrent refractory sarcoma; conditions = 12 mg; endpoint = grade 1 or 2 Thrombocytopenia; result = 18.2%
Structure (SMILES) = CO[C@H]1C[C@@H]2CC[C@@H](C)[C@@](O)(O2)C(=O)C(=O)N2CCCC[C@H]2C(=O)O[C@H]([C@H](C)C[C@@H]2CC[C@@H](OC(=O)NCCOCCOCCOCCOCCOCCOCCOCCOCCC(=O)N3CCc4cc(Cn5nc(-c6ccc7oc(N)nc7c6)c6c(N)ncnc65)ccc4C3)[C@H](OC)C2)C[C@@H](O)[C@H](C)/C=C(\C)[C@@H](O)[C@@H](OC)C(=O)[C@H](C)C[C@H](C)/C=C/C=C/C=C/1C; assay = phase 1 dose escalation, measured: rash; system = advanced solid tumour patients; conditions = intravenous, 6 mg weekly, grade ≥3; endpoint = TRAE incidence; result = 8.3%
Structure (SMILES) = CC[C@H](C)[C@H](NC(=O)[C@H](Cc1ccccc1)NC(=O)[C@H](CCC(=O)O)NC(=O)[C@H](CCCNC(=N)N)NC(=O)[C@H](C)NC(=O)[C@H](C)NC(=O)[C@H](CCC(N)=O)NC(=O)[C@H](CCC(=O)O)NC(=O)[C@H](CCC(=O)O)NC(=O)[C@H](CC(C)C)NC(=O)[C@H](Cc1ccc(O)cc1)NC(=O)[C@H](CO)NC(=O)[C@H](CO)NC(=O)[C@@H](NC(=O)[C@H](CC(=O)O)NC(=O)[C@H](CO)NC(=O)[C@@H](NC(=O)[C@H](Cc1ccccc1)NC(=O)[C@@H](NC(=O)CNC(=O)[C@H](CCC(=O)O)NC(=O)[C@H](C)NC(=O)CCc1c[nH]cn1)[C@@H](C)O)[C@@H](C)O)C(C)C)C(=O)N[C@@H](C)C(=O)N[C@@H](Cc1c[nH]c2ccccc12)C(=O)N[C@@H](CC(C)C)C(=O)N[C@H](C(=O)N[C@@H](CCCNC(=N)N)C(=O)NCC(=O)N[C@@H](CCCNC(=N)N)C(=O)N[C@@H](CCCCNC(=O)COCCOCCNC(=O)COCCOCCNC(=O)CC[C@H](NC(=O)CCCCCCCCCCCCCCCCC(=O)O)C(=O)O)C(=O)NCC(=O)NCC(=O)N[C@@H](CO)C(=O)N[C@@H](CCCCNc1c(NCCCCCN(O)C(=O)CCC(=O)NCCCCCN(O)C(=O)CCC(=O)NCCCCCN(O)C(C)=O)c(=O)c1=O)C(=O)O)C(C)C [zirconium-89 labelled]; system = rat, heart; conditions = iv, 3 nmol/kg, 24 h, ex vivo; endpoint = tissue uptake; result = 0.16 %ID/g
Structure (SMILES) = Cc1cc(C(=O)NC(C)(C)COc2cccc3c2C(N)=NS(=O)(=O)N3)cc(C)n1; target or system = Salmonella typhimurium; assay = Ames test, initial; system = TA1535; conditions = 1.50 µg/plate, with: rat liver S9; scale = reference: solvent control; endpoint = revertant ratio; result = 0.8
Structure (SMILES) = COc1cccc(-c2n[nH]c(SCc3ccccn3)n2)c1OC; target or system = Salmonella typhimurium; assay = Ames test, plate incorporation; system = TA1535; conditions = 2.0 mg/plate, without S9; endpoint = revertant colonies per plate; result = 8
Structure (SMILES) = [Cl-].[Cl-].[Pt+2].[Ru+2].c1ccc(-c2nccnc2-c2ccccn2)nc1.c1cnc2c(c1)ccc1cccnc12.c1cnc2c(c1)ccc1cccnc12; target or system = Danio rerio; system = embryos; conditions = 30 µM, 72 h; endpoint = hatching rate; result = 36.7 ± 6.3%

Some of these lines once more:
Structure (SMILES) = COc1cc2c(Oc3ccc4[nH]c(C)cc4c3F)ccnc2cc1OCC1(N)CC1; system = paediatric recurrent refractory sarcoma; conditions = 12 mg; endpoint = grade 1 or 2 Thrombocytopenia; result = 18.2%
Structure (SMILES) = CO[C@H]1C[C@@H]2CC[C@@H](C)[C@@](O)(O2)C(=O)C(=O)N2CCCC[C@H]2C(=O)O[C@H]([C@H](C)C[C@@H]2CC[C@@H](OC(=O)NCCOCCOCCOCCOCCOCCOCCOCCOCCC(=O)N3CCc4cc(Cn5nc(-c6ccc7oc(N)nc7c6)c6c(N)ncnc65)ccc4C3)[C@H](OC)C2)C[C@@H](O)[C@H](C)/C=C(\C)[C@@H](O)[C@@H](OC)C(=O)[C@H](C)C[C@H](C)/C=C/C=C/C=C/1C; assay = phase 1 dose escalation, measured: rash; system = advanced solid tumour patients; conditions = intravenous, 6 mg weekly, grade ≥3; endpoint = TRAE incidence; result = 8.3%
